Published values from different studies.
Each line is one published result; not all experiments were run side by side. Values joined by “and” are separate records of one study, mostly repeats; a detail may differ. Numbers after ± are the reported error.

Structure (SMILES) | test | system | conditions | tissue uptake
O=C(NCC1OC2CCC=CCCC2O1)c1ccc([18F])nc1 (centres unmarked) |  | healthy female BALB/c nude mice, stomach | intravenous, 7.4 MBq per mouse, 120 min | 0.5 ± 0.1 %ID/g
N#C[C@@H]1CCCN1C(=O)CNC(=O)c1ccnc2ccc(OCCCN3CCN(C(=O)CCc4ccc(O)c(CN5CCN6CC(=O)[O][Al-]([18F])([O]C(=O)C5)[O]c5ccc(CCC(=O)N7CCN(CCCOc8ccc9nccc(C(=O)NCC(=O)N%10CCC[C@H]%10C#N)c9c8)CC7)cc5C6)c4)CC3)cc12 (some centres unmarked) |  | BALB/c nude mice, U-87 MG xenograft, lung | 1 h, blocking, added: DOTA-FAPI-04 40 nmol/mouse co-injected | 6.49 ± 1.06 %ID/g
COc1ccc(Nc2nc(Nc3ccc(OCCOCC[18F])cc3)ncc2Br)cc1 |  | ICR mice, S180 tumour-bearing, spleen | intravenous, 370 kBq, 15 min | 2.34 ± 0.14 %ID/g
CN(O)C(=O)CCC(=O)NCCCN(CCCCN(CCCNC(=O)CCC(=O)N(C)O)C(=O)CCC(=O)N(C)O)C(=O)CCC(=O)N(C)O.[89Zr] | gamma counting | healthy Balb/c mice, adrenal | intravenous, 4 h, 89Zr-labelled complex | 0.06 %ID/g
C[N+](C)(CCOCCOCCOCCNC(=S)Nc1ccc(C[C@H]2CN(CC(=O)[O-])CCN(CC(=O)[O-])CCN2CC(=O)[O-])cc1)C[c-]1cccc1.[64Cu+2].[Fe+2].c1cc[cH-]c1 | item: large intestine | nude mice, BxPC-3 tumour | 8 h post injection, pretargeting, 72 h lag | 5.2 ± 0.8 %ID/g
Cc1nc(N)nc2c1C(=O)N[C@@H](c1ccc(F)cc1-c1cccc(OCC[18F])n1)C2 | ex vivo biodistribution | C57BL/6 mice, urine | intravenous, 1 MBq, 30 min | 0.46 ± 0.08 %ID
O=C(O)CCCOc1ccc([18F])cc1-c1cc(-c2ccccc2C(F)(F)F)n(-c2ccccc2)n1 |  | mice, large intestine | intravenous, 60 min | 0.4 ± 0.1 %ID/g
COc1ccc(Nc2nc(Nc3ccc(OCCOCCOCC[18F])cc3)ncc2Br)cc1 |  | ICR mice, S180 tumour, stomach | intravenous, 370 kBq, 60 min | 1.56 ± 0.16 %ID
Cc1cc(C)n(CCN(CCN)CCCCCCNC(=O)[C@@H](N)Cc2c[nH]c3ccccc23)n1.[99Tc+].[C-]#[O+].[C-]#[O+].[C-]#[O+] |  | BALB/c nude mice, A549 xenograft, muscle | intravenous, 15 min | 0.55 ± 0.06 %IA/g
O=C([O-])CN1CCN(CC(=O)[O-])CCN(CC(=O)NC[C@H]2CC[C@H](C(=O)N[C@H](Cc3cnc4ccccc4c3)C(=O)NCCCC[C@H](NC(=O)N[C@@H](CCC(=O)O)C(=O)O)C(=O)O)CC2)CCN(CC(=O)[O-])CC1.[64Cu+2] | ex vivo gamma counting | 22Rv1 tumour-bearing mice, spleen | intravenous, 0.74 MBq, 6 h post-injection | 6.3 %ID/g
CCCC[C@H](NC(=O)CCCCCCCNC(=O)CN1CCN(CC(=O)O)CCN(CC(=O)O)CC1)C(=O)N[C@H]1CC(=O)NCCCC[C@@H](C(N)=O)NC(=O)[C@H](Cc2c[nH]c3ccccc23)NC(=O)[C@H](CCCNC(=N)N)NC(=O)[C@@H](Cc2ccccc2)NC(=O)[C@H](Cc2c[nH]cn2)NC1=O [fluorine-18 labelled] |  | C57 mice B16-F10 melanoma, lung | intravenous, 0.37 MBq, 0.5 h | 3.37 ± 0.61 %ID/g
CCCC[C@H](NC(=O)CNC(=O)CNC(=O)[C@H](CCCCNC(=O)[C@H](CC(=O)O)NC(=O)C(C)c1ccc(CC(C)C)cc1)NC(=O)CN1CCN(CC(=O)O)CCN(CC(=O)O)CCN(CC(=O)O)CC1)C(=O)N[C@H]1CC(=O)NCCCC[C@@H](C(N)=O)NC(=O)[C@H](Cc2c[nH]c3ccccc23)NC(=O)[C@H](CCCNC(=N)N)NC(=O)[C@@H](Cc2ccccc2)NC(=O)[C@H](Cc2c[nH]cn2)NC1=O (some centres unmarked) [lutetium-177 labelled] |  | C57 mice, tumour-bearing, heart | 2 h | 0.39 ± 0.13 %ID/g
N#C[C@@H]1CC(F)(F)CN1C(=O)CNC(=O)c1ccnc2c(NC(=O)[C@H](CCCCNC(=O)CCOCCOCCOCCOCCOCCOCCNC(=O)CN3CCN(CC(=O)[O-])CCN(CC(=O)[O-])CCN(CC(=O)[O-])CC3)NC(=O)CCCc3ccc(I)cc3)cccc12.[177Lu+3] | biodistribution | U-87 MG tumour-bearing mice, bone | 4 h | 3.69 ± 1.93 %ID/g
Cc1cc(C)n(CCN(CCN)CCCCCCNC(=O)[C@@H](N)Cc2c[nH]cn2)n1.[99Tc+].[C-]#[O+].[C-]#[O+].[C-]#[O+] |  | BALB/c nude mice A549 xenograft, tumor | intravenous, 15 min | 2.12 ± 0.07 %ID/g
CC(=O)N([O-])CCCCCNC(=O)CCC(=O)N([O-])CCCCCNC(=O)CCC(=O)N([O-])CCCCCN.[89Zr+4] | gamma counting | healthy Balb/c mice, muscle | intravenous, 4 h, 89Zr-labelled complex | 0.03 ± 0.02 %ID/g
COc1ccc2c(c1)C(C)(C)C(/C=C/C1=C(Oc3ccc(C(=O)NCCCCOc4cc(CN(Cc5ccccn5)Cc5ccccn5)cc(CN(Cc5ccccn5)Cc5ccccn5)c4)cc3)C(=C/C=C3/N(CCCCS(=O)(=O)[O-])c4ccc(OC)cc4C3(C)C)CCC1)=[N+]2CCCCS(=O)(=O)[O-].O=[N+]([O-])[O-].O=[N+]([O-])[O-].[99Tc+].[C-]#[O+].[C-]#[O+].[C-]#[O+].[Zn+2] |  | BALB/c mice, healthy, gall bladder | 12 h post-injection | 7.04 %ID/g and 12 %ID/g and 5.4 %ID/g and 37.9 %ID/g
N[C@H](CSC(F)(F)[18F])C(=O)O |  | Kunming mice, turpentine inflammation, normal muscle | intravenous, 0.74 MBq, 60 min | 1.32 ± 0.17 %ID/g
CC(C)C[C@H](NC(=O)[C@@H](CCCCNC(=O)[C@@H](Cc1ccccc1)NC(=O)CCCCCCCNC(=O)CN1CCN(CC(=O)O)CCN(CC(=O)O)CCN(CC(=O)O)CC1)NC(=O)[C@H](Cc1ccc(O)cc1)NC(=O)[C@H](CO)NC(=O)[C@H](Cc1c[nH]c2ccccc12)NC(=O)[C@H](Cc1c[nH]cn1)NC(=O)[C@@H]1CCC(=O)N1)C(=O)N[C@@H](CCCNC(=N)N)C(=O)N1CCC[C@H]1C(=O)NCC(N)=O [indium-111 labelled] | biodistribution | male athymic nude mice, DU-145 prostate cancer xenograft, spleen | intravenous, 0.037 MBq, 4 h post-injection | 0.16 ± 0.08 %ID/g
CC[C@H](C)[C@H](NC(=O)C[C@H](NC(=O)CN1CCN2CCN(CC1)CC(=O)[O][Al]([18F])[O]C(=O)C2)C(=O)O)C(=O)N[C@H]1CCc2cccc3c2N(C1=O)[C@H](C(=O)NCc1cn[nH]n1)C3 |  | C57BL/6J mice, MC-38 tumour, anti-PD-1 treated, intestine | 0.5 h | 0.8 ± 0.24 %ID/g
N#C[C@@H]1CCCN1C(=O)CNC(=O)c1ccnc2ccc(OCCCN3CCN(C(=O)CCc4ccc5c(c4)CN4CCN(Cc6cc(CCC(=O)O)ccc6O)CC(=O)[O][Al-]([18F])([O]C(=O)C4)[O]5)CC3)cc12 (some centres unmarked) |  | BALB/c nude mice, U-87 MG xenograft, intestine | 1 h, blocking, added: DOTA-FAPI-04 40 nmol/mouse co-injected | 11 ± 3.77 %ID/g
O=C(NCC1OC2CCC=CCCC2O1)c1ccc(COCCOCCOCC[18F])cc1 (centres unmarked) |  | healthy female BALB/c nude mice, lungs | intravenous, 7.4 MBq per mouse, 120 min | 1.5 ± 0.1 %ID/g
C[N+](C)(CCOCCOCCOCCOCCOCCOCCOCCNC(=S)Nc1ccc(CC2CN(CC(=O)[O-])CCN(CC(=O)[O-])CCN2CC(=O)[O-])cc1)C[c-]1cccc1.[64Cu+2].[Fe+2].c1cc[cH-]c1 (centres unmarked) | item: liver | nude mice, BxPC-3 tumour | 8 h, pretargeting, 72 h lag | 0.2 ± 0.1 %ID/g
CC(C)c1noc(C2CCN(c3ncnc(Nc4ccc(OCC[18F])cc4)c3[N+](=O)[O-])CC2)n1 | ex vivo biodistribution after PET | C57BL/J male mice, spleen | 60 min | 1.48 ± 0.41 %ID/g

Some of these lines once more:
Structure (SMILES) | test | system | conditions | tissue uptake
Cc1cc(C)n(CCN(CCN)CCCCCCNC(=O)[C@@H](N)Cc2c[nH]cn2)n1.[99Tc+].[C-]#[O+].[C-]#[O+].[C-]#[O+] |  | BALB/c nude mice A549 xenograft, tumor | intravenous, 15 min | 2.12 ± 0.07 %ID/g
